Published values from different studies.
Each line is one published result; not all experiments were run side by side. Numbers after ± are the reported error.
Method: steady-state kinetics
B1: nitrilase Y142V (Rhodococcus rhodochrous, UniProt A4LA85); chain MVEYTNTFKVAAVQAQPVWFDAAKTVDKTVSIIAEAARNGCELVAFPEVFIPGYPYHIWVDSPLAGMAKFAVRYHENSLTMDSPHVQRLLDAARDHNIAVVVGISERDGGSLYMTQLIIDADGQLVARRRKLKPTHVERSVVGEGNGSDISVYDMPFARLGALNCWEHFQTLTKYAMYSMHEQVHVASWPGMSLYQPEVPAFGVDAQLTATRMYALEGQTFVVCTTQVVTPEAHEFFCENEEQRKLIGRGGGFARIIGPDGRDLATPLAEDEEGILYADIDLSAITLAKQAADPVGHYSRPDVLSLNFNQRRTTPVNTPLSTIHATHTFVPQFGALDGVRELNGADEQRALPSTHSDETDRATASI
B2: enzyme D236N (Acetivibrio thermocellus, UniProt A3DJ38); chain MKLTIPELSLVVLIGSSGSGKSTFAKKHFKPTEVISSDFCRGLVSDDENDQTVTGAAFDVLHYIVSKRLQLGKLTVVDATNVQESARKPLIEIAKDYHCFPVAVVFNLPEKVCQERNKNRTDRQVEEYVIRKHTQQLKKSIKGLQREGFRYVYILNSPEEVEEVVFERQPLWNNKKDEHGPFDIIGDIHGCYDELKMLLEKLGYLIEEVEGGVGSGKYRVTHPEGRKVLFLGDLVNRGPKITEVLKLVMGMVKSGIALCVPGNHDVKLLRKLNGRDVQITHGLDRTLEQLAKEPQEFIEEVKAFIDGLVSHYVLDDGKLVVAHAGMKEEFQGRGSGKVREFALYGETTGETDEYGLPVRYDWASDYRGKALVVYGHTPQAEVLKVNNTINIDTGCVFGGKLTAYRYPEREIVDVKALKTYYEPAKPFLPKEDMAERFEARTDNDILDINDVLGKKIITTRLMSSITIHEENSIAALEVMSRFAADPHWLIYLPPTMSPCETSKKEGMLEHPIEAFEYFRTRGVGKVVCEQKHMGSRAVVIVCKDSQVAEKRFGVLDGTAGICYTRTGRHFFDDMQLEAELIDRVRKVLDKSGFWGDFNTDWVCLDCELMPWSAKAQKLLEEQYSAVGISGRVVLDEAVKLLKQASLNKTVSFDVSRQTSGKNADINELLQRFTERSEMMQKYVEAYRKYCWPVNSIDDLKLAPFHILATEGKVHSDKNHIWHMDTIAKYCTQDDSLIMATNHILVDVTDAESVDKGIKWWEDLTASGGEGMVVKPYDFIVKNGRELLQPAVKCRGREYLRIIYGPEYTMDENIERLRNRAVGKKRSLALREFSLGMEALERFVRNEPLYRVHECVFGVLALESEPVDPRL
B3: enzyme E217L/L163H/N249W (Thermobifida fusca, UniProt Q47RK4); chain MTDVYILDAVRTPFGRYGGALSGIRPDDLAAHVLRALAERSPGLDPAAVDDVFFGDANGAGEDNRNVARMAALLAGWPTSVPGVTLNRLCGSGMESVIAANRAIAVGDASLAVAGGVESMSRAPWVLPKPAQGFPTGHETLYSTTLGWRMVNPAMPEQWTVSHGESTEQVAATYGISRAEQDAFALRSHERAARAWAEGVFDAEITQIPGAELERDLSIRETSAEKLAALKPAFRPDGTITAGNASPLWDGAAALLIGDAAAAERVGREPLARIVSRGVAAVDPDVFGIGPVQAAEIALRRAGIGWDDLSVVELNEAFAAQSLACLKLWPDLDPEIVNPNGGAIAIGHPLGASGARIVGTLAHELHRRGGGWGLAAICIGVGQGLAVVLHR
B4: protein L361A (Streptomyces toyocaensis, UniProt Q8KLK7); chain MTTVLPPLEDTDGLWAALTEAAASVEKLLATLPEHGARSSAERAEIAAAHDAARALRVRFLDTHADAVYDRLTDHRRVHLRLAELVEAAATAFPGLVPTQQQLAVERSLPQAAKEGHEIDQGIFLRAVLRSPLAGPHLLDAMLRPTPRALELLPEFVRTGEVEMEAVHLERRDGVARLTMCRDDRLNAEDGQQVDDMETAVDLALLDPGVRVGLLRGGVMSHPRYRGKRVFSAGINLKYLSQGGISLVDFLMRRELGYIHKLVRGVLTNDDRPGWWHSPRIEKPWVAAVDGFAIGGGAQLLLVFDRVLASSDAYFSLPAAKEGIIPGAANLRLGRFAGPRVSRQVILEGRRIWAKEPEARALVDEVVEPDELDAAIERSLTRLDGDAVLANRRMLNLADESPDGFRAYMAEFALMQALRLYGHDVIDKVGRFGGRPPA
B5: xoxF1 (Methylorubrum extorquens, UniProt C5B120); chain NESVLKGVANPAEQVLQTVDYANTRYSKLDQINASNVKNLQVAWTFSTGVLRGHEGSPLVVGNIMYVHTPFPNIVYALDLDQGAKIVWKYEPKQDPSVIPVMCCDTVNRGLAYADGAILLHQADTTLVSLDAKSGKVNWSVKNGDPSKGETNTATVLPVKDKVIVGISGGEFGVQCHVTAYDLKSGKKVWRGYSIGPDDQLIVDPEKTTSLGKPIGKDSSLKTWEGDQWKTGGGCTWGWFSYDPKLDLMYYGSGNPSTWNPKQRPGDNKWSMTIWARNPDTGMAKWVYQMTPHDEWDFDGINEMILTDQKFDGKDRPLLTHFDRNGFGYTLDRATGEVLVAEKFDPVVNWATKVDLDKGSKTYGRPLVVSKYSTEQNGEDVNSKGICPAALGTKDQQPAAFSPKTGLFYVPTNHVCMDYEPFRVTYTPGQPYVGATLSMYPAPGSHGGMGNFIAWDNLQGKIKWSNPEQFSAWGGALATAGDVVFYGTLEGFLKAVDSKTGKELYKFKTPSGIIGNVMTYEHKGKQHVAVLSGVGGWAGIGLAAGLTDPNAGLGAVGGYAALSSYTNLGGQLTVFSLPNN
B6: TcC (Trypanosoma cruzi, UniProt Q4DGA3); chain MPREYEFAEKILFTEEEIRTRIMEVAKRIADDYKGKGLRPYVNPLVLISVLKGSFMFTADLCRALSDFNVPVRMEFICVSSYGEGVTSSGQVRMLLDTRHSIEGHHVLIVEDIVDTALTLNYLYHMYFTRRPASLKTVVLLDKREGRRVPFSADYVVANIPNAFVIGYGLDYDDTYRELRDIVVLRPEVYAEREAARQKKQRAIGSADTDRDAKREFHSKY
Sequence of UniProt P25740 (whole entry, looked up): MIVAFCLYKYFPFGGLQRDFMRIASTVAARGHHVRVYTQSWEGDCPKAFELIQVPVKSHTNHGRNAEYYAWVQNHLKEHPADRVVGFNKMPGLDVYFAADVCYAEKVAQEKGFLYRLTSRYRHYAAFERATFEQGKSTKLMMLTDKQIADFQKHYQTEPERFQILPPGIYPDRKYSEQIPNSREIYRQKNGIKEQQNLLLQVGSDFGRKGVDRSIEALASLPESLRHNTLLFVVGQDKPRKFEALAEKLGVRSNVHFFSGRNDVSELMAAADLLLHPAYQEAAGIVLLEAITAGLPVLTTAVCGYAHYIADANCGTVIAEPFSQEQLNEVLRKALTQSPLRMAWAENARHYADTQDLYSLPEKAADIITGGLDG

Molecule	substrate	conditions	kcat
aacA-aphD (Staphylococcus aureus, UniProt P0A0C1)	CN[C@@H]1[C@@H](O)[C@@H](O[C@@H]2[C@@H](O)[C@H](O[C@H]3OC(CNCCO)=CC[C@H]3N)[C@@H](N)C[C@H]2NC(=O)[C@@H](O)CCN)OC[C@]1(C)O	pH 7.5, 25 °C	0.126 ± 0.004 s⁻¹
B1 (nitrilase Y142V)	Cc1cccc(C#N)c1	pH 7.5, 25 °C	0.000102 ± 1.67e-06 s⁻¹
B2 (enzyme D236N)	Nc1ncnc2c1ncn2[C@@H]1O[C@H](CO)[C@H]2OP(=O)(O)O[C@H]21	pH 7.5, 45 °C	5.77 ± 0.233 s⁻¹
B3 (enzyme E217L/L163H/N249W)	CC(C)(COP(=O)(O)OP(=O)(O)OC[C@H]1O[C@@H](n2cnc3c(N)ncnc32)[C@H](O)[C@@H]1OP(=O)(O)O)[C@@H](O)C(=O)NCCC(=O)NCCSC(=O)CCC(=O)O	pH 7.4, 37 °C	0.00983 ± 0.00233 s⁻¹
waaG (Escherichia coli, UniProt P25740)	O=c1ccn([C@@H]2O[C@H](CO[P@@](=O)(O)O[P@@](=O)(O)O[C@H]3O[C@H](CO)[C@@H](O)[C@H](O)[C@H]3O)[C@@H](O)[C@H]2O)c(=O)[nH]1	pH 7.5, 25 °C, apparent	0.5 s⁻¹
B4 (protein L361A)	CC(C)(COP(=O)(O)OP(=O)(O)OC[C@H]1O[C@@H](n2cnc3c(N)ncnc32)[C@H](O)[C@@H]1OP(=O)(O)O)[C@@H](O)C(=O)NCCC(=O)NCCSC(=O)Cc1cc(O)cc(O)c1	pH 7.5, 24 °C, with: O2	0.18 ± 0.02 s⁻¹
B5 (xoxF1)	CO	30 °C	4 ± 0.2 s⁻¹
azu N30H/N36H/Q34H (Pseudomonas aeruginosa)	O=NO	pH 6.35	0.00933 s⁻¹
gliT (Aspergillus fumigatus, UniProt E9RAH5)	CC(=O)NC1=C(S)/C(=C\S)NC1=O	pH 6.5	52.8 ± 12.4 s⁻¹
B6 (TcC)	Oc1ncnc2[nH]ncc12	pH 8.3, 37 °C, apparent, with: PRPP 1 mM, MgCl2 12 mM	2 ± 0.1 s⁻¹
pyc R472S (Rhizobium etli)	Nc1ncnc2c1ncn2[C@@H]1O[C@H](COP(=O)(O)OP(=O)(O)OP(=O)(O)O)[C@@H](O)[C@H]1O	pH 7.8, 30 °C	2 ± 0.2 s⁻¹

Excerpt of the above:
Molecule	substrate	conditions	kcat
B3 (enzyme E217L/L163H/N249W)	CC(C)(COP(=O)(O)OP(=O)(O)OC[C@H]1O[C@@H](n2cnc3c(N)ncnc32)[C@H](O)[C@@H]1OP(=O)(O)O)[C@@H](O)C(=O)NCCC(=O)NCCSC(=O)CCC(=O)O	pH 7.4, 37 °C	0.00983 ± 0.00233 s⁻¹
